Measured values pooled from the literature.
Numbered parts are unrelated; each lists some results of a single study. Substitutions count along the parent as printed.

Sample 1 — method: RNA Bind-n-Seq; form: RNA; matrix: in vitro; concentration: 100 nM; baseline: input RNA pool; direction: higher = stronger binding; endpoint: bound/input enrichment
Target: RING finger protein unkempt homolog, zinc fingers 1-6, SBP tag (UNK, Homo sapiens, UniProt Q9C0B0, residues 30-357)
Sequence of UniProt Q9C0B0 (30-357, looked up): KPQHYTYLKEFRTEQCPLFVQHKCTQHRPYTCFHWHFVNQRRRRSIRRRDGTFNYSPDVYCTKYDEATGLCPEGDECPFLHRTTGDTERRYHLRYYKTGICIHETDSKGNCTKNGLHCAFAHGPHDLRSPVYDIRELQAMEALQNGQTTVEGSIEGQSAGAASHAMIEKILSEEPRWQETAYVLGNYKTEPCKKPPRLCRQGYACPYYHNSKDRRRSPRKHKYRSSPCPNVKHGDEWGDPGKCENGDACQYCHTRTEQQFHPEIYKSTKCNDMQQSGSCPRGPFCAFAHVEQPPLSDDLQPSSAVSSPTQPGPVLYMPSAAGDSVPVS
Setting: RNA with constant flanks, vertebrate orthologous sites, ends assumed
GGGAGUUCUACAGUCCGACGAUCAUUCAAACCUGUGGUACCAUGGCCUCAUGUUGAAGGAGUAGAAGUGGACUUAGAGUCUAUUAGAAGAAUAAACAAGGCCAAAAAUGAACAAGAGCACCAUGCUGGAGGAGAUUCCCAGAACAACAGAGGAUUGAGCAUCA: 0.384 ratio
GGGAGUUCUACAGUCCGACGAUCAAUCAACUCAGGUUUUAUUUAUUUUGAAAUUAUCAAUUGUAUGUCUAAUUUAUUGACAAAUAUGAUGGGAUUUUUUUUAUUGUUGAAACCUUGACAGGCAAUUCAUAUUCUCAGCUUCUACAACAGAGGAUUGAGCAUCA: 0.256 ratio
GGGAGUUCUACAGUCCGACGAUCAAUCAGUAGAAUUACAUAAUACUAAAGUUGCAGUUGAAAGAAUAUCCAAGUAUGUGUUGGUAGUUACUAAAAGAAUUAUAGCUGUUAUUGCCUUGUAUUUAUAGCCCUUGUUUCAGGUUUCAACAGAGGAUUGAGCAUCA: 0.948 ratio
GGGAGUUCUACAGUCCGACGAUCUCCCAGCACUCUGAUAAAAAGUGUGGACUGGUUGCUUGUAUUUUCCUUAUUCUUUUUAAUCAGUUUUAUUAUGUACGCUACCAUUCGAACUGAGAGUAUUCGGUGGCUGAUUCCGGGACACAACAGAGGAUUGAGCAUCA: 0.487 ratio
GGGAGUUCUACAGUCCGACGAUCACGCUUUGAUAUUAAAUUUGACAUAAAAAGCAGCUGAUCGUAAGCACAACUCUCUUCUCCUAGCCAUUUAAAAAGGUAAAAAACAAAAAAGAAAACCUACUAGUCUUGAACAAACUGUCACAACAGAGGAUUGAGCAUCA: 0.882 ratio
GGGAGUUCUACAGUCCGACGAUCAAUGAGAUGUUUUAACUGUUUAAACAUUAAAUGCAAGCUUUGCUUUUUUGCAUUUGAAUAUAGAGUACUUUUAUAUUGUAAGUGCUUCAAAAGUGUGGAGAUGUUAGAUUUGCUCUUAUACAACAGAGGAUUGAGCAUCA: 0.374 ratio
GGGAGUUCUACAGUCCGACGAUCGCAAUGAAAAAGCAGCCCUUCUCCCAGCCCCCUUUUCACUAGGAGAUACAAACGUUACCAUAGAAGAGCAAUUAAACUCAGUAAAUUUAUCUUUUCAGGAUGAUCCAGACUCCAGUACCACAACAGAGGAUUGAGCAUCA: 1.28 ratio
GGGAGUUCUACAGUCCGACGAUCGACUGGAUGCAGCGCAAAACGUACCCAAGGCAGUGACUUCGACUUCCUAUACGUUGUUAUUCAAAGUCACCUACUUUUAUUUCAGCGUCUAGACUGGAUUGUUAGCGCUACUGCUCUUUGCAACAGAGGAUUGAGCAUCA: 0.346 ratio
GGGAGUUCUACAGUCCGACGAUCCUGAAGCUUUGUGUUUGGCUGCACCUGCAUAAGCUGCUACAAAUAGAAUAAAGAAUUUCAUAGCCUGUAUCUAUCAUUUAGAUGCAUGGAAAAUGGGCUUUGCACACCGUGGGUUUGGAGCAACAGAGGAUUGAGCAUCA: 2.13 ratio
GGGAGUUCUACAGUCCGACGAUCUUCAGGCACAACUGACUGGUUCACAGCAUUCCUUACAUAGUUAUCUAUCAAAUGCAAAUGUAGUUAAUUUUCAGGAAACAAGCAGGCAGUCAUCUUUAUCCUGUAGCCCAAUUGGAGAGUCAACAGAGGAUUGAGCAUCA: 1.77 ratio
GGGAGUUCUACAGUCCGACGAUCAACCUAAAAUUAUACCAAAAGAGCCAAGCAGUAGCAUUGUUUUUUUUGUAAAUGUAAAAAUAGAUCCAGACUUUGUUUCCUUAUUCAAUUUUAAAAAUAAAAAAUACCUCAGUGCUGUUUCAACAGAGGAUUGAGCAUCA: 0.398 ratio

Sample 2 — target: JDP2, bZIP domain (human); method: DHFR protein complementation; matrix: yeast; baseline: wild-type JUN-FOS pair; direction: higher = stronger binding; endpoint: binding fitness
Setting: single substitutions, most at no-binding floor
Starting sequence: JUN, bZIP domain (human); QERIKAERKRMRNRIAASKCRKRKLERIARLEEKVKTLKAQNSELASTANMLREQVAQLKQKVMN; partner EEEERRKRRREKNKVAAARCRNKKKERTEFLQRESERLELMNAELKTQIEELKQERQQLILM
I28D: 0.251 natural log
S43P: -0.338 natural log
Q55A: 0.315 natural log
K36G: 0.313 natural log
L52W: 0.14 natural log
S47T: 0.225 natural log
T48E: 0.221 natural log
L38S: -0.0314 natural log
E44K: 0.255 natural log
K36S: 0.314 natural log
A46L: 0.275 natural log
E32L: 0.198 natural log
Q55P: -0.9 natural log
N42S: 0.201 natural log
L45F: 0.202 natural log
V56L: 0.16 natural log
A46D: 0.0708 natural log
A29N: 0.295 natural log

Sample 3 — method: universal PBM; form: double-stranded DNA, one strand shown; matrix: in vitro; concentration: 600 nM; direction: higher = stronger binding; endpoint: E-score
Target: Sal-like protein 4, full length isoform A (SALL4, Homo sapiens, UniProt Q9UJQ4, residues 1-1053)
Sequence of UniProt Q9UJQ4 (whole entry, looked up): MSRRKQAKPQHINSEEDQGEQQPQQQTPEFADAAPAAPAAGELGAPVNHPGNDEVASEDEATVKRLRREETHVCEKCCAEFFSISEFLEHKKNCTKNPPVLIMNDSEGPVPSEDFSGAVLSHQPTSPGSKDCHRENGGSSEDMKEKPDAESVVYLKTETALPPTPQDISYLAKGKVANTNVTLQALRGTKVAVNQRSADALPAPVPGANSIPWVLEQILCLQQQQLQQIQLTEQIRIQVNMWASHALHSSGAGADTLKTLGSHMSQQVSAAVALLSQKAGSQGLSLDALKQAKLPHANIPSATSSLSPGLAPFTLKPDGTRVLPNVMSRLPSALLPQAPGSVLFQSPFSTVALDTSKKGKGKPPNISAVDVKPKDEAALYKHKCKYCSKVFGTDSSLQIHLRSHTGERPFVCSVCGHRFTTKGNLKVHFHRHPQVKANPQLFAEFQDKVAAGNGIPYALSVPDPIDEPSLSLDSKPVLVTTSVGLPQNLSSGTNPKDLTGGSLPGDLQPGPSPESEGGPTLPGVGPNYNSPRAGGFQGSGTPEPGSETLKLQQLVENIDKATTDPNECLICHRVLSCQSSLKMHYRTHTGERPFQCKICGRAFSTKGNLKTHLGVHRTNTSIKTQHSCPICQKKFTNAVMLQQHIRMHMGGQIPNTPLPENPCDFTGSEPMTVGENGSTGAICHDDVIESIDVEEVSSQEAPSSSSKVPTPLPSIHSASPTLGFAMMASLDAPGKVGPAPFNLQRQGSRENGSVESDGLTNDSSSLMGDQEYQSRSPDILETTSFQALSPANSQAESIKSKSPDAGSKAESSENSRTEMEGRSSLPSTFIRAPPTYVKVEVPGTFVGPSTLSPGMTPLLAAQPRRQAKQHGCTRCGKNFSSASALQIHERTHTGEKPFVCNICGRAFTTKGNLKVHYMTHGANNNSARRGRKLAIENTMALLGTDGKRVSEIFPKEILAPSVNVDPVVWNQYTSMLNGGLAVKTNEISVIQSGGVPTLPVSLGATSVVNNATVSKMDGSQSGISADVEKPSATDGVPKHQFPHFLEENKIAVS
Setting: 8-mer, flanks averaged, mean of replicates
AATCGTGT: 0.0665
AGAGATGG: 0.067
CCCGCTCC: -0.319
GATGACTA: 0.0561
ATTGGTAC: -0.0566
ACGACGGG: -0.231
CAGTGAAG: 0.0161
ATCGATCA: 0.154
CCCATCGA: -0.0495
TAACGAGA: 0.201
CTTCCTAA: 0.2
AGCTGCTA: -0.109
CCTACGAA: -0.0652
GATGGACC: -0.118
TACGGTAA: 0.27
CCTTGCAA: -0.165
ACCAACTG: -0.12
CTTCGACC: -0.22
ATGAAGCA: 0.0697
ATATGGTC: 0.189

Sample 4 — method: DHFR PCA, deep sequencing; matrix: yeast; together with: (+)-ABA 2500 µM; baseline: wild-type fitted maximum; direction: higher = stronger binding; endpoint: relative binding score
Target: ABI1, truncated, D143A, DHFR fusion (Arabidopsis thaliana)
Setting: methotrexate growth selection, single substitutions
Starting sequence: PYL1, truncated, DHFR fusion (Arabidopsis thaliana); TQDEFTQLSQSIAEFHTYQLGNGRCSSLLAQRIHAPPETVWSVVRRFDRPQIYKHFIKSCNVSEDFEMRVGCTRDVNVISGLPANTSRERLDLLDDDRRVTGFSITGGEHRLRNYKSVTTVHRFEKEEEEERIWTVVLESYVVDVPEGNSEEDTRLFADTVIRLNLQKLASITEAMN; partner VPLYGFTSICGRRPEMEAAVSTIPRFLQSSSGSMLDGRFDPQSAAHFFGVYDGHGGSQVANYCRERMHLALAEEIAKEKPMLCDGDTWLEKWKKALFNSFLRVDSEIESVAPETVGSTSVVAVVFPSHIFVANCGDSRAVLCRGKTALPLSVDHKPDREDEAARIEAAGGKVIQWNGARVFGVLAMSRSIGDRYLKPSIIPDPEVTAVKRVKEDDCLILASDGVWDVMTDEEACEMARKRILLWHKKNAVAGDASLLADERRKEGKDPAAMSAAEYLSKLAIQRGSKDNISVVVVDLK
T154L: 81.8%
A175I: 91.6%
S11P: 100%
G81A: 85.4%
I57G: 25.9%
A30Y: 96%
Q51F: 101%
E139W: 93.9%
D48M: 60.5%
L166Q: 83.9%
V44C: 84.5%
T173G: 90.4%
A175R: 97.1%
N85F: 93%
M68F: 91.5%
A13P: 82.5%

Sample 5 — method: RNAcompete; form: RNA; matrix: in vitro; concentration: 20 nM; setting: 7-mer, probes averaged, single round; baseline: mean of 7-mers; direction: higher = stronger binding; endpoint: 7-mer Z-score
Target: PABPC1L2, full length, GST fusion (mouse, UniProt A0ABA7IW68)
Construct (chain): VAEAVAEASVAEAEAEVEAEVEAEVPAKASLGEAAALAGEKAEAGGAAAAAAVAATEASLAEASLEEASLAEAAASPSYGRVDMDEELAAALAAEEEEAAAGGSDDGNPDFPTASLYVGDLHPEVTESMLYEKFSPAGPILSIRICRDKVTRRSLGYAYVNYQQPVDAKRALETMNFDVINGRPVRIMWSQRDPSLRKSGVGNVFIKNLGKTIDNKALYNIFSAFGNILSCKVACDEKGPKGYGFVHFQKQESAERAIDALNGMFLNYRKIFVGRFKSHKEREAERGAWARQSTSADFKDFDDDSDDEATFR
GUUUCCU: -0.407
UACAUUC: -0.161
UCACAAA: 1.23
AUCCUUA: -0.322
GUACCGG: -0.173
GACGACC: -0.103
AUGACCU: -0.188
AAAACAU: 8.41
GCACGCG: -0.103
CCUUGAG: -0.32
ACGAAUA: 0.0478
CUCAUAU: -0.287
GACGGGU: -0.124
AUGUACG: -0.0464
CCUUUUA: 0.394
GGGAGAU: 0.167
UAGACCU: -0.166
GCCUCCC: -0.508
CCAGCAU: -0.277
CAAGCUC: -0.19
GUGUAGC: -0.11
AUUUGCA: -0.26
AGAACUA: -0.021
CUUCUAA: -0.188
GUUCCAU: -0.258

Sample 6 — target: CCNB1, cyclin fold, Cln2 fusion (human); method: yeast growth competition, sequencing; matrix: yeast; setting: strong parent motif; baseline: not given; direction: higher = stronger binding; endpoint: normalised enrichment score
Starting sequence: PKN2 docking peptide (human); DSTVTKLDFDLEP
DSAVTKLDFDLEP [T3A]: 3.7
DSTVTALDFDLEP [K6A]: 2.28
DSTVAKLDFDLEP [T5A]: 2.96
DSTVTKLAFDLEP [D8A]: 2.05
DSTVTKLDFDLEA [P13A]: 3.8
DATVTKLDFDLEP [S2A]: 3.9
DSTVTKLDADLEP [F9A]: 0.0266
